Assay results from different studies.
Numbers after ± are the reported error.
UniProt P08684, sequence (whole entry, looked up): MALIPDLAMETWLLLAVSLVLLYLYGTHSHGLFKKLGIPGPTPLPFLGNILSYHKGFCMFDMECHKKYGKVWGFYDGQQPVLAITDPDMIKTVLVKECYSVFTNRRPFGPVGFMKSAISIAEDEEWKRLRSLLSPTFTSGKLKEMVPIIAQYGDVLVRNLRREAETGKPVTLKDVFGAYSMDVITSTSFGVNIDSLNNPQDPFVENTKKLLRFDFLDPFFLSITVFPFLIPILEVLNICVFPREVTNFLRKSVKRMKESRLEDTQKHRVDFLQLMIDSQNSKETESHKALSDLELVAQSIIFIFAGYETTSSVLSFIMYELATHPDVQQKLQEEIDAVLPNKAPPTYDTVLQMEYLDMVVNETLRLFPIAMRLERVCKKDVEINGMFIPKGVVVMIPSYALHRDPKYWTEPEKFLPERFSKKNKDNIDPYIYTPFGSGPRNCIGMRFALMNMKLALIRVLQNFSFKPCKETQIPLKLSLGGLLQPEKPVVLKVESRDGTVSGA

SMILES	target or system	assay	system	setting	how to read	endpoint	result
C#CCN(Cc1cnc2nc(N)nc(N)c2n1)c1ccc(C(=O)N2CCC(C(=O)OC)CC2)cc1	THP-1-derived macrophages	MTT	–	–	–	CC50	> 100 µM
O=C(CC1CCOCC1)Nc1ccc(C2CCCCC2)cc1	–	–	cryopreserved mouse hepatocytes	1 µM	–	hepatic clearance	79 mL/min/kg
O=C(Nc1nc2cccc(-c3ccc(CN4CCS(=O)(=O)CC4)cc3)n2n1)C1CC1	–	measured: general and administration-site disorders	rheumatoid arthritis patients	oral, 30 mg once daily, 4 weeks, any relatedness	–	treatment-emergent adverse events	0%
CC[C@H]1[C@@H](O)[C@@H]2[C@H](CC[C@]3(C)[C@@H]([C@H](C)CCNC(=O)NS(=O)(=O)c4ccc(C(C)(C)C)cc4)CC[C@@H]23)[C@@]2(C)CC[C@@H](O)C[C@@H]12	Cytochrome P450 3A4 (CYP3A4, Homo sapiens, UniProt P08684)	–	human, plasma	10 mg, day 1, compound alone	direction not given	lambda z geometric mean	0.0589 h⁻¹
CCN1/C(=C/C(C)=O)Sc2ccc(F)cc21	–	–	cynomolgus monkey	oral, 10 mg/kg, 24 h post-dose	–	mean blood pressure	91 ± 3 mmHg
CCOc1c([C@H](C)n2nc(C)c3c(N)ncnc32)cc(Cl)c(F)c1[C@@H]1CNC(=O)C1	–	–	human B-cell malignancy patients	oral, all doses	–	observations with ΔQTcF 30-60 ms	2.4%
O=C(Cn1ccnc1)Nc1ccc(C2CCCCC2)cc1	–	–	human liver microsomes	1 µM, without NADPH	–	hepatic clearance	3.9 mL/min/kg
Cc1cc(Nc2ccc(S(F)(F)(F)(F)F)cc2)n2nc(C(C)(F)F)nc2n1	Plasmodium falciparum	LC-MS/MS	malaria patients, plasma	oral, 250 mg	–	terminal half-life	86.9 h
O=C(Nc1ccc(C2CCCCC2)cc1)[C@H]1CC1(F)F	–	liver microsome stability	rat liver microsomes	1 µM	–	hepatic clearance	51 mL/min/kg
O=C(O)CCC(=O)O.[2H]C([2H])([2H])Oc1cc(C)c2[nH]ccc2c1CN1CC[C@@H](C2CC2)C[C@H]1c1ccc(C(=O)O)cc1	–	multiple ascending dose	healthy Chinese subjects	100 mg twice daily	–	subjects with any TEAE	62.5%
CC(C(=O)Nc1ccc([C@H]2[C@@H](F)[C@@H](F)C[C@@H](F)[C@H]2F)cc1)n1cncn1 (stereo partly shown)	–	–	human liver microsomes	1 µM, without NADPH	–	hepatic clearance	3.9 mL/min/kg
O=[N+]([O-])c1ccc(Nc2ncnc3ccc(-c4cccc(N5CCOCC5)c4)cc23)cc1C(F)(F)F	Trypanosoma brucei	–	HepG2	48 h	baseline: HepG2 CC50 over T. brucei GI50	selectivity index	> 4800
CN(CCC#N)C(=O)c1ccc(C2CCCCC2)cc1	–	liver microsome stability	cynomolgus liver microsomes	1 µM	–	hepatic clearance	40 mL/min/kg
NC(=O)C1CCN(C(=O)Cc2ccc(N(CCCO)Cc3cnc4nc(N)nc(N)c4n3)cc2)CC1	THP-1-derived macrophages	MTT	–	–	–	CC50	> 100 µM
Cc1ccc(Nc2ncnc3ccc(-c4cccc(N5CCOCC5)c4)cc23)cc1	Trypanosoma brucei	–	HepG2	48 h	baseline: HepG2 CC50 over T. brucei GI50	selectivity index	41
CC[C@H](CO)N(CCN(N=O)[C@H](CC)CO)N=O	Salmonella typhimurium	mutagenicity, Ames plate incorporation	TA1537	2500 µg/plate, without S9, methanol	–	revertant colonies per plate	12 ± 2

SMILES	target or system	assay	system	setting	how to read	endpoint	result
O=C(NCc1cc[nH]n1)c1ccc([C@H]2[C@@H](F)[C@@H](F)C[C@@H](F)[C@H]2F)cc1	–	liver microsome stability	human liver microsomes	1 µM, without NADPH	–	hepatic clearance	3.9 mL/min/kg
COC(=O)C1CCN(C(=O)c2ccc(NCc3cnc4nc(N)nc(N)c4n3)cn2)CC1	THP-1-derived macrophages	MTT	–	–	–	CC50	> 100 µM
Cc1cc(N)c2c(OCC(C)(C)C(=O)NC(C)C)cccc2n1	Salmonella typhimurium	reverse mutation, plate incorporation	TA100	50 µg/plate, with rat liver S9	–	mean revertant colonies	107 colonies/plate
Clc1ccc(Nc2ncnc3ccc(-c4cccc(N5CCOCC5)c4)cc23)cc1Cl	Trypanosoma brucei	–	HepG2	48 h	baseline: HepG2 CC50 over T. brucei GI50	selectivity index	> 980
Nc1nc(N)c2nc(CNc3ccc(C(=O)c4ccccc4)cc3)cnc2n1	THP-1-derived macrophages	MTT	–	–	–	CC50	12.5 to 25 µM
CC(C)(C(=O)N1CCOc2c(C#N)cncc2C1)C(F)F	–	measured: gingival bleeding	human, both sexes	oral, 20 mg twice daily, 14 days, multiple ascending dose	–	subjects with TEAE	0%
Cc1ccc(S(=O)(=O)Nc2nc(N)c(-c3nc4ccccc4s3)c(-c3ccc(F)cc3)n2)cc1	FRhK-4	cytotoxicity	–	72 h	–	maximum non-toxic concentration	100 µg/mL
CCOC(=O)C1CCCN1C(=O)c1ccc(NCc2cnc3nc(N)nc(N)c3n2)cc1 (stereo not shown)	THP-1-derived macrophages	MTT	–	–	–	CC50	> 100 µM
Cc1cc(C(=O)NC(C)(C)COc2cccc3c2C(N)=NS(=O)(=O)N3)cc(C)n1	human peripheral blood lymphocytes	in vitro micronucleus test	–	1000 µg/mL, 4 h, with rat liver S9 activation, DMSO 0.4%	–	micronucleated binucleated cells	0.1%
Clc1ccc(Nc2ncnc3ccc(-c4cccc(N5CCOCC5)c4)cc23)cc1	Trypanosoma brucei	–	HepG2	48 h	baseline: HepG2 CC50 over T. brucei GI50	selectivity index	170
O=C(CNc1nc(NS(=O)(=O)c2ccccc2)ncc1-c1nc2ccccc2s1)c1ccc(Br)cc1	FRhK-4	cytotoxicity	–	72 h	–	maximum non-toxic concentration	120 µg/mL
O=C(Nc1ccc(C2CCCCC2)cc1)c1cn[nH]c1	–	–	cynomolgus liver microsomes	1 µM	–	hepatic clearance	29 mL/min/kg
COc1ccc(CNC(=O)c2ccc(CNCc3cnc4nc(N)nc(N)c4n3)cc2)cc1OC	THP-1-derived macrophages	MTT	–	–	–	CC50	> 100 µM
c1cc(-c2ccc3ncnc(NC4CCOCC4)c3c2)cc(N2CCOCC2)c1	Trypanosoma brucei	–	HepG2	48 h	baseline: HepG2 CC50 over T. brucei GI50	selectivity index	8.6
O=C(COCC(F)F)Nc1ccc(C2CCCCC2)cc1	–	liver microsome stability	rat liver microsomes	1 µM	–	hepatic clearance	46 mL/min/kg
